Measurements pooled from the literature.
Each line is one published result; not all experiments were run side by side. ± marks the error that the study gave. In brackets after ≈: the same amount, converted by molar mass.

Substance | target or system | test | test system | conditions | scale | measurement | result
CC[N+](CC)(CC)CC(=O)Nc1c(C)cccc1C | sodium channel (rat brain), batrachotoxin-modified | open channel block, blocker, planar lipid bilayer, single channel |  | low-Kd period, +50 mV |  | koff | 339 s⁻¹
O=C(NC(CO)C(O)c1ccc([N+](=O)[O-])cc1)C1CCCN1 (stereo not shown) | Escherichia coli 70S ribosome | binding, fluorescence polarization |  | added: BODIPY-erythromycin 4 nM |  | Kd | 7.5 ± 1.6 µM
CC(=O)C[C@@H](c1ccccc1)c1c(O)c2ccc(O)cc2oc1=O | UGT | measured: 4-glucuronide | human liver microsomes |  |  | Vmax1 | 19.7 nmol/min/mg protein
CO/N=C(\C(=O)N[C@@H]1C(=O)N2C(C(=O)O)=C(CSc3nc(=O)c(=O)[nH]n3C)CS[C@H]12)c1csc(N)n1 | PBP5/6 Escherichia coli | Bocillin-FL binding, inhibitor | Escherichia coli, MG1655 | 30 min, Tris-EDTA permeabilised, added: Bocillin-FL 25 µM |  | apparent IC50 | 15 ± 17 µM
FWNWHHFKG | adeno-associated virus 9 | capsid binding, bind-and-elute chromatography | peptide | peptide ligand resin, MgCl2 elution |  | recovery yield | 43.9%
complement C3 | anti-oxytocin rabbit polyclonal IgG | cross-reactivity, oxytocin EIA, Enzo |  | 3 µg/mL |  | apparent oxytocin concentration | 4.4 ± 2.3 pg/mL
Oc1cc(O)cc(/C=C/c2ccccc2)c1 | Sp1 (human) | reporter gene, inhibitor | SW1353 | control transcription factor |  | IC50 | 12.5 µg/mL (≈ 58.9 µM)
CC(C)[C@H](NC(=O)CNC(=O)CNC(=O)CNC(=O)[C@H](CCCNC(=N)N)NC(=O)[C@H](CCCNC(=N)N)NC(=O)[C@H](CCCNC(=N)N)NC(=O)[C@H](CCC(N)=O)NC(=O)[C@H](CCCNC(=N)N)NC(=O)[C@H](CCCNC(=N)N)NC(=O)[C@H](CCCCN)NC(=O)[C@H](CCCCN)NC(=O)[C@H](CCCNC(=N)N)NC(=O)CNC(=O)[C@@H](N)Cc1ccc(O)cc1)C(=O)N[C@H](C(=O)N[C@H](C(=O)N[C@@H](C)C(=O)O)[C@@H](C)O)C(C)C | ClpP and alpha-synuclein (human) | inhibitor, co-immunoprecipitation | HEK293T cells |  |  | protein interaction | inhibited
NC(Cc1ccc(O)cc1)C(=O)NC(CO)C(O)c1ccc([N+](=O)[O-])cc1 (stereo not shown) | Escherichia coli 70S ribosome | binding, fluorescence polarization |  | added: BODIPY-erythromycin 4 nM |  | Kd | 8.2 ± 1.5 µM
[Met(O)35]Aβ40 | methionine sulfoxide reductase (rat) | HPLC, dabsyl-Met(O) | rat primary cortical neurons | 10 µM, 24 h | relative to: untreated cells | Msr activity increase | 25 ± 6%
CN[C@@](C)(C[18F])C(=O)O | DU-145 tumour model |  | host not given, bone | 2 h, tumour-bearing |  | tracer uptake | 1.8 %ID/g
IWWHIAKFG | adeno-associated virus 9 | capsid binding, bind-and-elute chromatography | peptide | peptide ligand resin, MgCl2 elution |  | recovery yield | 61.7%
CC(C)=CCC/C(C)=C/Cn1ccn2cc(C(=O)NCc3ccc(F)cc3F)c(=O)c(O)c2c1=O | HIV-1 integrase wild type | viral replication | HOS, HIV-1 | single-round vector |  | EC50 | > 0.02 µM
N[C@@H](Cc1c[nH]cn1)C(=O)N[C@H](CO)[C@H](O)c1ccc([N+](=O)[O-])cc1 | Escherichia coli 70S ribosome | binding, fluorescence polarization |  | added: BODIPY-erythromycin 4 nM |  | Kd | 0.24 ± 0.06 µM
Fibrinogen | anti-oxytocin rabbit polyclonal IgG | cross-reactivity, oxytocin EIA, Enzo |  | 3 µg/mL |  | apparent oxytocin concentration | 5.5 ± 4.5 pg/mL
CCCOC(=O)Cc1ccc(OCC(=O)N(CC)CC)c(OCC)c1 | GABA-A receptor rat | GABA-evoked chloride current, positive allosteric modulator, whole-cell patch clamp | embryonic rat cortical neurons | pH 7.4, holding -60 mV, added: GABA 5 µM |  | EC50 | 36 µM
Cc1cc(Nc2nc(N[C@@H](C)c3ncc(F)cn3)ncc2Cl)n[nH]1 | STAT5A/STAT5B | DNA binding, inhibitor, EMSA | COS-7 | 25 nM, 2 h, added: human prolactin | relative to: vehicle | inhibition | > 50%

Substance | target or system | test | test system | conditions | scale | measurement | result
O=C(N[C@@H](Cn1ccnc1)c1ccc(Cl)cc1Cl)c1ccc(-c2nnc(-c3ccccc3)o2)cc1 | Leishmania infantum CYP51 |  |  | concentration not given |  | remaining activity | 12 ± 1.1%
anthraquinone-neomycin | poly(dA)·2poly(dT) triplex | triplex melting, UV melting |  | pH 6.8 |  | Tm | 68 °C
Transferrin | anti-oxytocin rabbit polyclonal IgG | cross-reactivity, oxytocin EIA, Enzo |  | 3 µg/mL |  | apparent oxytocin concentration | 10.7 ± 7.9 pg/mL
O=CNCC(=O)NC(CO)C(O)c1ccc([N+](=O)[O-])cc1 (stereo not shown) | Escherichia coli 70S ribosome | binding, fluorescence polarization |  | added: BODIPY-erythromycin 4 nM |  | Kd | 45 ± 6 µM
Arginine vasopressin | anti-oxytocin rabbit polyclonal IgG | cross-reactivity, oxytocin EIA, Enzo |  | 3 µg/mL |  | apparent oxytocin concentration | 25.2 ± 2.9 pg/mL
C=CC(=O)OCCO | lysine-containing peptide | mass spectrometry |  | 24 h, pH 10.2, room temperature |  | maximal peptide depletion | -111%
O=C(N[C@H](CO)[C@H](O)c1ccc([N+](=O)[O-])cc1)C(Cl)Cl | Escherichia coli 70S ribosome | binding, fluorescence polarization |  | added: BODIPY-erythromycin 4 nM |  | Kd | 2.8 ± 0.5 µM
CN(C)CCCn1cc(C2=C(c3c[nH]c4ccccc34)C(=O)NC2=O)c2ccccc21 | Yes kinase, rat | TPA-stimulated phosphorylation, PKC inhibitor, measured: Yes pY416 |  | 5 µM, 2.5 min, pretreatment, added: TPA 1 µM | relative to: TPA alone | phosphorylation level | 93 ± 4%
CC(=O)Oc1ccccc1C(=O)O | COX-2 |  | A549 IL-1β activated | concentration not given, added: supernatant of platelets from treated blood |  | PGE2 production | 3.3 ± 0.3 ng/mL
Apolipoprotein A-I | anti-oxytocin rabbit polyclonal IgG | cross-reactivity, oxytocin EIA, Enzo |  | 3 µg/mL |  | apparent oxytocin concentration | 3.3 ± 2.4 pg/mL
COc1cc(/C=C/c2ccc(O)cc2)cc(OC)c1 | Sp1 (human) | reporter gene, inhibitor | SW1353 | control transcription factor |  | IC50 | > 25 µg/mL
c1cnc2c(c1)ccc1cccnc12 | Staphylococcus aureus BstA |  |  | 1 mM, added: mBCl 50 µM, BSH 50 µM |  | remaining activity | < 1%
CC(=O)OCC[N+](C)(C)C | nicotinic acetylcholine receptor, mouse | [3H]GABA release, agonist | superior colliculus synaptosomes | high-sensitivity component |  | EC50 | 0.48 ± 0.33 µM
CC[C@@]1(O)C[C@H](O[C@H]2C[C@H](N(C)C)[C@H](O)[C@H](C)O2)c2c(cc3c(c2O)C(=O)c2c(O)cccc2C3=O)[C@H]1C(=O)OC | pre-miR-21 RNA | differential scanning fluorimetry |  |  | relative to: untreated, positive = stabilisation | maximal ΔTm | -17.1 °C
COC[C@H]1OC(=O)c2coc3c2[C@@]1(C)C1=C(C3=O)[C@@H]2CCC(=O)[C@@]2(C)C[C@H]1OC(C)=O | protein kinase B (human) | enzyme activity, single-cell CE-LIF, measured: peptide VI-B | EpCAM-positive PDX tumour cells | 0.5 µM | relative to: total peptide | phosphorylated peptide | 1%
NC(=O)[C@@H]1CC[C@@H]2CN1C(=O)N2OS(=O)(=O)O | PBP5/6 Escherichia coli | Bocillin-FL binding, inhibitor | Escherichia coli, MG1655 | 30 min, Tris-EDTA permeabilised, added: Bocillin-FL 25 µM |  | apparent IC50 | 480 ± 430 µM
CC(C)(O)C(O)Cc1cc(/C=C/c2cc(O)cc(O)c2)ccc1O (stereo not shown) | Sp1 (human) | reporter gene, inhibitor | SW1353 | control transcription factor |  | IC50 | > 25 µg/mL

Some of these lines once more:
Substance | target or system | test | test system | conditions | scale | measurement | result
Oc1cc(O)cc(/C=C/c2ccccc2)c1 | Sp1 (human) | reporter gene, inhibitor | SW1353 | control transcription factor |  | IC50 | 12.5 µg/mL (≈ 58.9 µM)
CC(C)[C@H](NC(=O)CNC(=O)CNC(=O)CNC(=O)[C@H](CCCNC(=N)N)NC(=O)[C@H](CCCNC(=N)N)NC(=O)[C@H](CCCNC(=N)N)NC(=O)[C@H](CCC(N)=O)NC(=O)[C@H](CCCNC(=N)N)NC(=O)[C@H](CCCNC(=N)N)NC(=O)[C@H](CCCCN)NC(=O)[C@H](CCCCN)NC(=O)[C@H](CCCNC(=N)N)NC(=O)CNC(=O)[C@@H](N)Cc1ccc(O)cc1)C(=O)N[C@H](C(=O)N[C@H](C(=O)N[C@@H](C)C(=O)O)[C@@H](C)O)C(C)C | ClpP and alpha-synuclein (human) | inhibitor, co-immunoprecipitation | HEK293T cells |  |  | protein interaction | inhibited
